Published values gathered from unrelated publications.
Lines come from different studies, so protocols differ. Several values in a cell are separate wells, animals, samples, runs or records. Numbers after ± are the reported error.
USP14: Ubiquitin carboxyl-terminal hydrolase 14 (USP14, Homo sapiens, UniProt P54578)
Chain of UniProt P54578 (whole entry, looked up): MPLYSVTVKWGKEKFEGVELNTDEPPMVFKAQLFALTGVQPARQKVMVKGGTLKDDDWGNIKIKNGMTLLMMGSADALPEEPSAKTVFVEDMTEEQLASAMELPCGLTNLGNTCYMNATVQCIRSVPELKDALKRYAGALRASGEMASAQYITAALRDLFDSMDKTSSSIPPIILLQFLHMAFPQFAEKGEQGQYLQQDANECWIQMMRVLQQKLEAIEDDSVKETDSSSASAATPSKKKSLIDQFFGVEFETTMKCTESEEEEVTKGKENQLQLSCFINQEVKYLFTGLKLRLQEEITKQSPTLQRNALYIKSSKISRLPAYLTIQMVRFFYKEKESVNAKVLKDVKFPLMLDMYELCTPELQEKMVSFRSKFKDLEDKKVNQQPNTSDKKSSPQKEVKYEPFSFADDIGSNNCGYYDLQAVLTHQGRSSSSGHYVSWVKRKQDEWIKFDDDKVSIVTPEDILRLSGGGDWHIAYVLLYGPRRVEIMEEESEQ
Chain of UniProt P08191 (whole entry, unmodified, looked up): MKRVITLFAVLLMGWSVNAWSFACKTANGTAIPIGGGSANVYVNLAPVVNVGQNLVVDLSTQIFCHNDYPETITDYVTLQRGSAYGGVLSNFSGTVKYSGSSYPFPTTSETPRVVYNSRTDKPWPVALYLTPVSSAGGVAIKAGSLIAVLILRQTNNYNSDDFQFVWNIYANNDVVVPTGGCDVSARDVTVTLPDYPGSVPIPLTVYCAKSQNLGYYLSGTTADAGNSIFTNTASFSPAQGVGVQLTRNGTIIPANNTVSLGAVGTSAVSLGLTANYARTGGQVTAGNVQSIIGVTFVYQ
Chain of UniProt P48067 (whole entry, looked up): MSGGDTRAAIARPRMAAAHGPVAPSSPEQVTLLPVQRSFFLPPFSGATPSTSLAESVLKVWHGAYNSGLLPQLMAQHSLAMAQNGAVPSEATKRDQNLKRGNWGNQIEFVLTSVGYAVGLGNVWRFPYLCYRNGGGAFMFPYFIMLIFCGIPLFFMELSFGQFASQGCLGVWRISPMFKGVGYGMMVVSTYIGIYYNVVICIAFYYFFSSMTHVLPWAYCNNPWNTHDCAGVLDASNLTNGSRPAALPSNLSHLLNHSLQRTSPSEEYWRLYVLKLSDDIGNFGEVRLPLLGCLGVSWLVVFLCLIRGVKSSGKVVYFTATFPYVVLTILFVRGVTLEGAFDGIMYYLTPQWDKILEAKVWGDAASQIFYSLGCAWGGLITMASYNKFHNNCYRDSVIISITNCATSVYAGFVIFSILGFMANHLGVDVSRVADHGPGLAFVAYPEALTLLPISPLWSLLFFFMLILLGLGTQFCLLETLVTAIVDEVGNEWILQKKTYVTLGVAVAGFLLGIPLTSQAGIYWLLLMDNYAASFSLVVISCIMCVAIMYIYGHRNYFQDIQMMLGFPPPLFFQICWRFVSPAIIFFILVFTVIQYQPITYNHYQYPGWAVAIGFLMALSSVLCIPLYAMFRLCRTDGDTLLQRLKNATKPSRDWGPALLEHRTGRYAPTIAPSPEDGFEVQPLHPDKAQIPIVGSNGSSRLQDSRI
Chain of UniProt Q16539 (whole entry, unmodified, looked up): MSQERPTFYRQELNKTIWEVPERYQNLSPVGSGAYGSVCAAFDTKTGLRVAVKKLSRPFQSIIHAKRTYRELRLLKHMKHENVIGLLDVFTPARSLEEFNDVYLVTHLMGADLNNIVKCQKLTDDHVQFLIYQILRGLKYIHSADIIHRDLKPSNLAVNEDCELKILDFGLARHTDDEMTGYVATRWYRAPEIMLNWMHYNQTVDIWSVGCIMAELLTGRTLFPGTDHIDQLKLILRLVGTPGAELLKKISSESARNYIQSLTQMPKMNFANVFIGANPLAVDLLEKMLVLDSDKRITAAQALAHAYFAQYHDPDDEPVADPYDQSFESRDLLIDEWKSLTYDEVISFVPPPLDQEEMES
Chain of UniProt Q9BY41 (whole entry, unmodified, looked up): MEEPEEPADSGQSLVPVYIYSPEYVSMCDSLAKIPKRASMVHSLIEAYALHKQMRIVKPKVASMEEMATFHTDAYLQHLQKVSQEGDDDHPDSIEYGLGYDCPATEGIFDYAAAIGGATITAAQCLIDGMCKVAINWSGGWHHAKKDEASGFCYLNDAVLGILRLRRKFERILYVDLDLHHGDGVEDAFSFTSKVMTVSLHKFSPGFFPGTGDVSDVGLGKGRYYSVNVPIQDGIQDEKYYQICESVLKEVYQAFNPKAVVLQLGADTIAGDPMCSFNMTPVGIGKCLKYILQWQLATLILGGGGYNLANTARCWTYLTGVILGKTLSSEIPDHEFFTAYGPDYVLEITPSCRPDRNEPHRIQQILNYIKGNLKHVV
Chain of UniProt P45984 (whole entry, looked up): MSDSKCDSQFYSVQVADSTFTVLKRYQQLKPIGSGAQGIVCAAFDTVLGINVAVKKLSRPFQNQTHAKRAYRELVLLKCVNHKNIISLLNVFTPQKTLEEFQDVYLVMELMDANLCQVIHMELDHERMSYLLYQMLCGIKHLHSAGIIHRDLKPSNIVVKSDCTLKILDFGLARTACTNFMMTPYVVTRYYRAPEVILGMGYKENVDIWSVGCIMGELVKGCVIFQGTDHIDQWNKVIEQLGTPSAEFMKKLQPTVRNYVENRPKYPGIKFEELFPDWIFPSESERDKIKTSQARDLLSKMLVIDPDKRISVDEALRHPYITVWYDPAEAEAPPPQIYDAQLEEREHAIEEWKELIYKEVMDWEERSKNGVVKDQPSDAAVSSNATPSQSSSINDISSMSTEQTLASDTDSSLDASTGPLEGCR
Chain of UniProt P48547 (whole entry, looked up): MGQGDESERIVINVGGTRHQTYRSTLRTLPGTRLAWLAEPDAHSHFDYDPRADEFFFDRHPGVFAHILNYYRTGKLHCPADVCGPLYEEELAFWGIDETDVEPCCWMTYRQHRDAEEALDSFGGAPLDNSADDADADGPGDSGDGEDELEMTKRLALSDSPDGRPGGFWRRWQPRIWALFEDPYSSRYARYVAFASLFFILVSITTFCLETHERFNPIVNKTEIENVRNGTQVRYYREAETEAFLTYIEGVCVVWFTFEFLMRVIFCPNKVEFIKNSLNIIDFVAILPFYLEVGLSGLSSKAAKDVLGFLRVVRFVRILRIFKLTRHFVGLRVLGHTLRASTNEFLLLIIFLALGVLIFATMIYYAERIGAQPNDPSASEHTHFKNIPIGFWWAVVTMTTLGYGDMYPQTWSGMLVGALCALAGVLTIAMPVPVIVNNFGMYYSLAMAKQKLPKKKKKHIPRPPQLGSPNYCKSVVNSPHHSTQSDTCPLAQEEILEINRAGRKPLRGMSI

SMILES	target or system	assay	system	setting	how to read	measurement	value
C#CCOC(=O)[C@]1(C)C=C(C(=O)Nc2cccc(C(=O)Nc3ccc(C)c(Nc4nccc(-c5cccnc5)n4)c3)c2)C(=O)CC1	MAPK9 (Homo sapiens, UniProt P45984)	enzyme activity, inhibitor	–	0.0007527 µM, unit not given	reference: vehicle	remaining activity	0.98
O=C1Nc2ccccc2/C1=N/N=C1\C(=O)Nc2ccccc21	USP14	enzyme activity, inhibitor	–	17 µM	–	inhibition	63%
Cc1ncc2[nH]c(=O)n(-c3cnc(Oc4cccc5c4C(C)(C)CO5)c(Cl)c3C)c2n1	KCNC1 (Homo sapiens, UniProt P48547)	potassium current, manual patch clamp	–	1 µM	–	deactivation time constant τ2	no effect
CCCCCCCO[C@H]1[C@H](OC)O[C@H](CO)[C@@H](O)[C@H](O)[C@@H]1O	Type 1 fimbrin D-mannose specific adhesin, lectin domain (fimH, Escherichia coli K-12, UniProt P08191)	binding, isothermal titration calorimetry	–	25 °C, individual direct titrations	–	ΔG	-7.7 kcal/mol and -7.74 kcal/mol
C[Si](C)(C)C[C@H](CN)CC(=O)O	P2X receptor, rabbit	binding, radioligand binding	–	250 µM, with: [3H]alpha,beta-methylene-ATP	–	inhibition	6%
COC(=O)[C@@]1(Cc2ccccc2)C=C(C(=O)OC(C)(C)C)C(=O)CC1	MAPK14 (Homo sapiens, UniProt Q16539, C119V)	peptide binding, fluorescence polarization	–	62.5 µM	–	fraction bound	0.153
O=C(N/N=C/c1cc[n+](Cc2ccccc2)c2ccccc12)N/N=C/c1cc[n+](Cc2ccccc2)c2ccccc12	hp2 hairpin duplex DNA	FRET melting	–	1 µM	–	ΔTm	1.9 ± 0.6 °C
CN(C)c1cccc(-c2ccc3ncnc(Nc4ccc(OCc5cccc(F)c5)c(Cl)c4)c3c2)c1	Leishmania major	intracellular amastigote growth, luciferase	RAW264.7 macrophages	–	–	EC50	> 15 µM
COc1ccc(C(OCCN2CCC[C@@H]2C(=O)O)(c2ccc(OC)cc2)c2ccc(OC)cc2)cc1	SLC6A9 (Homo sapiens, UniProt P48067)	cell-free assay	–	10 µM	–	remaining signal	2.7%
CC(/C=C/C(=O)NO)=C\[C@@H](C)C(=O)c1ccc(N(C)C)cc1	HDAC8 (Homo sapiens, UniProt Q9BY41)	ITC	Hepes buffer	pH 7.5	–	TΔS	4.4 kcal/mol
Cc1ccc(-n2c(C)cc(C(=O)CN3CCC(C)CC3)c2C)cc1	USP14	enzyme activity, inhibitor	–	17 µM	–	inhibition	14%
O=C1CCC(N2C(=O)c3cccc4c(Cc5cnn(C6CCN(C(=O)C7(O)CCC7)CC6)c5)ccc2c34)C(=O)N1 (stereo not shown)	CRBN/Zinc finger protein Aiolos (Homo sapiens, UniProt Q96SW2+Q9UKT9)	protein level, degrader, western blot	NCI-H929	100 pM, 4 h	–	remaining activity	71.8%
O=C(N/N=C/c1cc[n+](CC2CC2)c2ccccc12)c1ccc2ccc3ccc(C(=O)N/N=C/c4cc[n+](CC5CC5)c5ccccc45)nc3c2n1	hp2 hairpin duplex DNA	FRET melting	–	1 µM, with: ds26 10 µM	–	ΔTm	0.8 ± 0.1 °C

Some of these lines once more:
SMILES	target or system	assay	system	setting	how to read	measurement	value
CCCCCCCO[C@H]1[C@H](OC)O[C@H](CO)[C@@H](O)[C@H](O)[C@@H]1O	Type 1 fimbrin D-mannose specific adhesin, lectin domain (fimH, Escherichia coli K-12, UniProt P08191)	binding, isothermal titration calorimetry	–	25 °C, individual direct titrations	–	ΔG	-7.7 kcal/mol and -7.74 kcal/mol
C[Si](C)(C)C[C@H](CN)CC(=O)O	P2X receptor, rabbit	binding, radioligand binding	–	250 µM, with: [3H]alpha,beta-methylene-ATP	–	inhibition	6%
